# Published values pooled from the literature.
# Each numbered part is a random draw from the data of one study; scales do not carry over between parts.

# Series 1
# Target: Sal-like protein 4, full length isoform A (SALL4, Homo sapiens, UniProt Q9UJQ4, residues 1-1053)
# Chain of UniProt Q9UJQ4 (whole entry, looked up): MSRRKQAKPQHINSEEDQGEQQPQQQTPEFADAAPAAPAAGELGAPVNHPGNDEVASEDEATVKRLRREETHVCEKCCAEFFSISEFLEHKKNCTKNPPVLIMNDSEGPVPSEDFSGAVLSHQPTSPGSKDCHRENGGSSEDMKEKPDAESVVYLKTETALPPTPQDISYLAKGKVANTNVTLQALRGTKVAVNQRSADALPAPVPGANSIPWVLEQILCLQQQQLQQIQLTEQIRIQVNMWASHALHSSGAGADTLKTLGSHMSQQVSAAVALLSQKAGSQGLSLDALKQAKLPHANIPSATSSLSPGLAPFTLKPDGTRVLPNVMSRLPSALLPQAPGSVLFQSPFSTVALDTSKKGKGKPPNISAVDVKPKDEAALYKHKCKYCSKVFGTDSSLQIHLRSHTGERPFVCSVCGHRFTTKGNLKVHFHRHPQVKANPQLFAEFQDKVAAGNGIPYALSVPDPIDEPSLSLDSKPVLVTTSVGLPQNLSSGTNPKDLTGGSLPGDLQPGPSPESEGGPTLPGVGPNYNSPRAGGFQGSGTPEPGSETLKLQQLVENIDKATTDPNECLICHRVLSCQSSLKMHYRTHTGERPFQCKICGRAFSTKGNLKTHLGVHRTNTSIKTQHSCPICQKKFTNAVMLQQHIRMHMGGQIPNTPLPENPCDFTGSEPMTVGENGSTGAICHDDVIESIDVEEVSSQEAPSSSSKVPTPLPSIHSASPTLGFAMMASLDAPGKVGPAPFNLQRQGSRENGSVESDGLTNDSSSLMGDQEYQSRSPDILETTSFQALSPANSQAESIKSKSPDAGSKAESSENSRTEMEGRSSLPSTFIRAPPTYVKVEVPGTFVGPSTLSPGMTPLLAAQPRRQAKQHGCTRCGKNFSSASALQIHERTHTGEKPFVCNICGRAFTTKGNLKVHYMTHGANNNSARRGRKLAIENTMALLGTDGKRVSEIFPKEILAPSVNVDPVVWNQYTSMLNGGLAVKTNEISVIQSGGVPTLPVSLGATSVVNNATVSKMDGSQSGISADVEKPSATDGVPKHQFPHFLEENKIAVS
# Method: universal PBM
# Form: double-stranded DNA, one strand shown
# Matrix: in vitro
# Concentration: 600 nM
# Setting: 8-mer, flanks averaged, mean of replicates
# Reading: higher = stronger binding
Strand,E-score
CTTCCGGC,-0.179
CAAACCTC,-0.186
GACAATAC,0.228
CCCAATAC,0.0861
AGCTCACC,-0.164

# Series 2
# Target: POU, POU domain (Salpingoeca helianthica)
# Method: Spec-seq
# Form: double-stranded DNA, one strand shown
# Matrix: in vitro
# Concentration: not given
# Setting: whole probe, mean of replicates
# Relative to: not given
# Reading: lower = stronger binding
# Residues (chain): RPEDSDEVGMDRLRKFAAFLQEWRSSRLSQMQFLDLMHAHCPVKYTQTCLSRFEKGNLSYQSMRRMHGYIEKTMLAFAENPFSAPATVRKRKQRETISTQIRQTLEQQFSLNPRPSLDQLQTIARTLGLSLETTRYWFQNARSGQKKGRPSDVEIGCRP
Strand,relative binding energy
GAGTCGTCTCGTCAGCACATTGAGATCCGTAGAGCACTCAGGTC,1.36 ln ratio
GAGTCGTCTCGTCAGCACATGCCGGACCGTAGAGCACTCAGGTC,1.66 ln ratio
GAGTCGTCTCGTCAGCACATGCACCTCCGTAGAGCACTCAGGTC,1.2 ln ratio
GAGTCGTCTCGTCAGCACATATATATCCGTAGAGCACTCAGGTC,0.493 ln ratio

# Series 3
# Target: Interferon regulatory factor 7, full length, phosphomimetic (IRF7, Homo sapiens, UniProt Q92985, residues 1-503, S471D/S472D/S475D/S476D/S477D/S483D/S484D/S487D)
# Chain of UniProt Q92985 (whole entry, unmodified, looked up): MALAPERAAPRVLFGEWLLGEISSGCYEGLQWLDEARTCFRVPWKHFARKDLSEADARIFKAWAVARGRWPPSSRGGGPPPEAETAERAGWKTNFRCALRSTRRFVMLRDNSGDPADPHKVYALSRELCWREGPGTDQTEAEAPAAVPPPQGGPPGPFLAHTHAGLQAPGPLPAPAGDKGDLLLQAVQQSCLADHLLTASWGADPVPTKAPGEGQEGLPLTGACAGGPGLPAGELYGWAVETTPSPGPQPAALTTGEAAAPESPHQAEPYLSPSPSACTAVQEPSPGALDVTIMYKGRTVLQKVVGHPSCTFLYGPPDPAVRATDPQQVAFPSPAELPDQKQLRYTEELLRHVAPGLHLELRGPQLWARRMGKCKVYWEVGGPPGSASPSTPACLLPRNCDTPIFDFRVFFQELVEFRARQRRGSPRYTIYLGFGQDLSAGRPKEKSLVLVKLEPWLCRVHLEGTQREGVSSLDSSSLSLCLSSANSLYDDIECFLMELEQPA
# Method: protein-binding microarray
# Form: double-stranded DNA, one strand shown
# Matrix: in vitro
# Concentration: 2200 nM top
# Setting: 60-bp whole probe
# With: salmon DNA 0.4 mg/ml
# Relative to: random background probes
# Reading: higher = stronger binding
# Shared flanks, not repeated: GCCTAGCAC … GTGCTAGGTCTTGATTCGCTTGACGCTGCTG
Strand,fitted relative affinity [z-score]
TTAGATCTCAGTCTCGATTT,1.39
GAATATATGTATATATGTGT,0.548
TTAGGTTTCCTTTTCATTTA,4.07
TCACATTTCAATTAGAAACT,1.11
TTAGATATCAGTATCGCTTA,0.268

# Further values, each from its own experiment
Substance,target,assay,system,setting,how to read,quantity,result
"PhoQ, residues 284 288 289 292 302 303 SQSLSM","PhoP, residues 12 14 15 18 19 LWHCS (Escherichia coli, UniProt P23836)","Sort-seq, refers to: YFP reporter",E. coli,"PhoQ-PhoP variant library, with: 10 µM Mg2+","relative to: high Mg2+ state, higher = stronger signaling",fold induction,10.1
